Assay results collected from several papers.
Each numbered part is a random draw from the data of one study; scales do not carry over between parts.

Sample 1
Target: RNA binding protein fox-1 homolog 2, RRM domain, GST-SBP tag (RBFOX2, Homo sapiens, UniProt O43251-10, residues 100-194)
Method: RNA Bind-n-Seq
Molecule type: RNA
Matrix: in vitro
Concentration: 365 nM
Setting: natural RNA segment, single round, ends assumed
Relative to: no-protein control
Direction: higher = stronger binding
Measurement: RBNS enrichment (R)
Constant ends, left off below: GGGAGUUCUACAGUCCGACGAUC … UGGAAUUCUCGGGUGCCAA
Construct (chain): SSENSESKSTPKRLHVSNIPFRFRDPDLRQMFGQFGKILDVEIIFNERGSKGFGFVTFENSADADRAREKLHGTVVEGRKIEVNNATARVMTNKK
GCAACCAGCCUGAGUCGCGGUGAGGGGACGAGAGGUUGUACACACAUUGGUAGUUAUUUUGCACCAGCAGUGCCUUUCUCACUGGGGGUACUUGGACCCUCAGAUCUUCU: 1.1
CCUGCCCCACACAGGUCACGCUGGCAAGGCGAUGACCAGUUUCCGAAACGCUGGAUCCCCAAGGGUACAGUGUGGCCCAGUCCUCCCCCACCUCCAUGGUGGCCCAGGCU: 0.204
GCUUGGCUGUUCCACCAGAGCAGAGGGAAUCAUUGCUGGACUGGAUUUCUUCUGGAGGGAAGCACCAUGAAUUAAAGGUGCCAGAGCUCCAUGCAUGGAAAAGUGGCCUG: 3.91
GCAAUGAAAGGUACUAUAUUUGCUAGACUCUAGACAAGAUAUUGUACAUAAAAGAAUUUUUUUGUCUUUAAAUAGAUACAAAUGUCUAUCAACUUUAAUCAAGUUGUAAC: 0.438
CGCUGGUUUUGUUGUCUACGGGGAGCCCCAGGAUUCAGCUGUGGGUCUCUUUGAGUAUCUGGAAAUCCCUGUCAUCUGCUGUCAUUGUGAGCAAGAAUUGCCCAGCAUUU: 1.29
CUACCCUCACCCUUCUGGCCAGGAUCCCGCAGGGCAACAGCCCCAUCUGCUUGGCUGACCCCACACCCAGGACCACUGUCCGGCUCUAACACAGCUAUUAAGUGCUACCU: 0.232
UGCAUGUUUGGCAGUUCCAUGUUACAGUCCAUUAGCGAGUGAACUUAGUGCCACAGGUAUUCAUUUAUUCAGGAAAGAAUUUUGCUUUUUGUAUUGUCUAAUCUCUUCAA: 3.34
AGGGCCAGUAACGGGUCGUAAUGACUUAUUGUGGAUAACAAAGAUAUCUUUUCUUUAGAGAACUGAAAAGAGAGCAGAGAAUAUAACAUGAAAUGAUAGAUUUGACCUCC: 0.477

Sample 2
Target: Sal-like protein 4, full length isoform A (SALL4, Homo sapiens, UniProt Q9UJQ4, residues 1-1053)
UniProt Q9UJQ4, sequence (whole entry, looked up): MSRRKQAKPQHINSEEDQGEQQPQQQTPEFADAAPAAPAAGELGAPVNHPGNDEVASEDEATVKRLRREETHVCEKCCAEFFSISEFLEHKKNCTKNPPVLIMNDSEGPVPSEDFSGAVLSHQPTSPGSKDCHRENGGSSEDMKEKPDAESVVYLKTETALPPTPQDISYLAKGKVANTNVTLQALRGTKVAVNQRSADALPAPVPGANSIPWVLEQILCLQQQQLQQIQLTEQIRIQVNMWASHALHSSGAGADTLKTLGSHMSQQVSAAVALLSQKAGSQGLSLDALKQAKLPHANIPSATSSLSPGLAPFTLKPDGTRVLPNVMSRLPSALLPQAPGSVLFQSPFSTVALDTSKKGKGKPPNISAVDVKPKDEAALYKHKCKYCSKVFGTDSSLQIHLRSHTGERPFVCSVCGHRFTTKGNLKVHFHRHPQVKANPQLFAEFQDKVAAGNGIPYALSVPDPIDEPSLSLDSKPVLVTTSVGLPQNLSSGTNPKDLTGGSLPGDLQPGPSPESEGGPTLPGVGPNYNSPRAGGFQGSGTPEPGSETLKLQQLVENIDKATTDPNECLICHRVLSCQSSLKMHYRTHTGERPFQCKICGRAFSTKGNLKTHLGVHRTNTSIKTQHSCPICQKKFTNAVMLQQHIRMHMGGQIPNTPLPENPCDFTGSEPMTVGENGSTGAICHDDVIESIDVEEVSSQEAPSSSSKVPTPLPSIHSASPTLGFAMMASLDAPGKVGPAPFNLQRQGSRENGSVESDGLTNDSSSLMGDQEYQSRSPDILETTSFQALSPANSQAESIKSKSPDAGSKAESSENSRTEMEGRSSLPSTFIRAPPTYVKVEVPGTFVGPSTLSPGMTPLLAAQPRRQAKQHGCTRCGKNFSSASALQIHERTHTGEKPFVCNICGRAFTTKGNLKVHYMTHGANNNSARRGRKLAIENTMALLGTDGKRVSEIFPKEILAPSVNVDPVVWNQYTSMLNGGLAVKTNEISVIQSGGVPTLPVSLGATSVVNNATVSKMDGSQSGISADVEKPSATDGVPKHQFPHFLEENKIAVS
Method: universal PBM
Molecule type: double-stranded DNA, one strand shown
Matrix: in vitro
Concentration: 600 nM
Setting: 8-mer, flanks averaged, mean of replicates
Direction: higher = stronger binding
Measurement: E-score
ATTTCCGG: 0.0321
TAAAACAA: 0.321
AGGGTCCA: -0.334
CCGGATAG: -0.0378
CGCGCTGC: -0.217

Sample 3
Target: Prothrombin, mature alpha-thrombin (F2, Homo sapiens, UniProt P00734)
Method: aptamer microarray, sandwich
Molecule type: DNA with 2'F-ANA
Matrix: in vitro
Concentration: 200 nM
Setting: whole 15-mer aptamer, many near background
With: Cy3 exosite-II aptamer, 400 nM
Direction: higher = stronger binding
Measurement: mean fluorescence intensity
Oligonucleotide: GGTTGGTGTGGTTGG
2'F-ANA at 4 6 7 12 15: 563 a.u.
2'F-ANA at 2 5 7 9 11 15: 59 a.u.
2'F-ANA at 4 6 7 9 11 13: 140 a.u.
2'F-ANA at 1 5 6 10 11 13 14 15: 49.7 a.u.
2'F-ANA at 2 3 4 5 9 10 12 15: 60.4 a.u.

Mixed results
PhoQ, residues 284 288 289 292 302 303 ALAMYF  fold induction (PhoP, residues 12 14 15 18 19 SEGLL (Escherichia coli, UniProt P23836); Sort-seq, refers to: YFP reporter; E. coli; PhoQ-PhoP variant library, with: 10 µM Mg2+; relative to: high Mg2+ state, higher = stronger signaling): 14.8

A few entries again (sample 2):
TAAAACAA: 0.321
CGCGCTGC: -0.217
